# Experimental data collected from several papers.
# Every numbered part comes from another study and shows a few of its results, in no order.

# Sample 1 — technique: protein-binding microarray; molecule type: double-stranded DNA, one strand shown; medium: in vitro; concentration: 250 nM; setting: 60-bp whole probe; with: salmon DNA 0.4 mg/ml; reference: random background probes; reading: higher = stronger binding; shared flanks, not repeated: GCCTAGCAC … GTCTTGATTCGCTTGACGCTGCTG
# Target: Interferon regulatory factor 7, full length, phosphomimetic (IRF7, Homo sapiens, UniProt Q92985, residues 1-503, S101K/S471D/S472D/S475D/S476D/S477D/S483D/S484D/S487D)
# Chain of UniProt Q92985 (whole entry, unmodified, looked up): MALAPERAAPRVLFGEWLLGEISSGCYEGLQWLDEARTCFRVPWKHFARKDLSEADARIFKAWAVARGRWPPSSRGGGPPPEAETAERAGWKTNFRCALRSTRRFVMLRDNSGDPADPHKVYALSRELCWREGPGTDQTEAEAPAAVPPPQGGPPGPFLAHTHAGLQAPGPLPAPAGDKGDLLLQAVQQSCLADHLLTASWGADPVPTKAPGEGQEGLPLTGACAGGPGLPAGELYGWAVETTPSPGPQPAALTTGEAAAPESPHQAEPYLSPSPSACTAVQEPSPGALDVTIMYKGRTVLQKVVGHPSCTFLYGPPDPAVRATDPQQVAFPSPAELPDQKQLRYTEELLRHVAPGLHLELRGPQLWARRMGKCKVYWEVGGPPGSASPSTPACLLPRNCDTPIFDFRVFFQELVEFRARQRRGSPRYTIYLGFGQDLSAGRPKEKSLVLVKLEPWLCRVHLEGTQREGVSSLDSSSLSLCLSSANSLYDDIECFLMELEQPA
Oligonucleotide,log fluorescence
GAAGAACTGGGGTTTCGAGACGTGCTA,2.43 z-score
AACGGTTTCCTACTGCTGACGTGCTAG,1.86 z-score
GTTTGTCCCTATTTAAGATAGTGCTAG,5.17 z-score
TCCACTTGTCTTTTCACTTTGTGCTAG,1.06 z-score
GAAGACTTTGGTTTGTACACGTGCTAG,-0.231 z-score
GACGGACTAGGTTTCGGGACGTGCTAG,3 z-score
ATCGATTTCTTCCCTGTGAAAGTGCTA,1.31 z-score

# Sample 2 — technique: protein binding microarray; molecule type: double-stranded DNA, one strand shown; medium: in vitro; concentration: not given; reference: not given; reading: higher = stronger binding
# Target: Histone acetyltransferase KAT6A, both winged helices, GST fusion (KAT6A, Homo sapiens, UniProt Q92794, residues 1-181)
# Setting: 8-mer, flanks averaged, mean of 2 arrays, mostly near background
# Construct (chain): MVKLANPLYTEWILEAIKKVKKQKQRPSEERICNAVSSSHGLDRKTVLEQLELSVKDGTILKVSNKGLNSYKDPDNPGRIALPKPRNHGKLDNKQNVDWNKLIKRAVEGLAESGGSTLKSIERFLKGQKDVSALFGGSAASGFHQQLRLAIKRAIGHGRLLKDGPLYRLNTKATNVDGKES
Oligonucleotide,E-score
AAAGGTGT,-0.0851
CGCCACCA,-0.00145
CAATGTAG,-0.15

# Sample 3 — technique: aptamer microarray, sandwich; molecule type: DNA with 2'F-ANA; medium: in vitro; concentration: 200 nM; with: Cy3 exosite-II aptamer, 400 nM; reading: higher = stronger binding; oligonucleotide: GGTTGGTGTGGTTGG
# Target: Prothrombin, mature alpha-thrombin (F2, Homo sapiens, UniProt P00734)
# Setting: whole 15-mer aptamer, many near background
Modification,mean fluorescence intensity [a.u.]
2'F-ANA at 1 2 3 5 12 14 15,46
2'F-ANA at 1 3 4 5 6 9 10 11 13 14 15,87.3
2'F-ANA at 1 5 6 8 9 12 13 14,46.1
2'F-ANA at 1 3 5 7 9 10 13 14,57.6
2'F-ANA at 1 2 5 6 7 15,58.2

# Mixed results
Substance,target,test,test system,setting,how to read,measurement,result
"PhoQ, residues 284 288 289 292 302 303 TNSAEL","PhoP, residues 12 14 15 18 19 NYFRM (Escherichia coli, UniProt P23836)","Sort-seq, measured: YFP reporter",E. coli,"PhoQ-PhoP variant library, with: 10 µM Mg2+","reference: high Mg2+ state, higher = stronger signaling",fold induction,5.67

# Some of these lines once more (sample 1):
Oligonucleotide,log fluorescence
GACGGACTAGGTTTCGGGACGTGCTAG,3 z-score
GAAGACTTTGGTTTGTACACGTGCTAG,-0.231 z-score
ATCGATTTCTTCCCTGTGAAAGTGCTA,1.31 z-score
